Experimental data pooled from the literature.
Protocols differ between the studies behind these lines.

`WT1 zinc finger 4 (Homo sapiens, UniProt P19544)` gave a pKa of 8 (NMR, measured: Cys5; 288 K, KCl 10 mM, apo, unfolded, reduced, numbering of the source).
`Txnrd2 mitochondrial del C-terminal eight residues (Mus musculus)` gave a pKa of 5.02 (UV-vis, measured: Cys57; NaCl 300 mM, numbering of the source, with: NADPH 250 µM).
`ksi D40Q/D103N (Pseudomonas putida)` has a pKa of 7.9 (UV-vis, measured: Tyr57; 25 °C).
For `CRYGD (Homo sapiens, UniProt P07320)`, the pKa was 6.69 (NMR, measured: His15; 25 °C, numbering of the source).
For `ksi Y32A/D40R/F56A/D103A (Pseudomonas putida)`, the pKa was > 10 (UV-vis, measured: Tyr57; 25 °C).
`iscU apo (Escherichia coli, UniProt P0ACD4)` gave a pKa of < 5.4 (NMR titration, measured: His105; 25 °C, NaCl 150 mM, S-state, averaged, apo).
`ksi F56A/D103N (Pseudomonas putida)` gave a pKa of 9.8 (UV-vis, measured: Tyr57; 25 °C).
The pKa of `PRL (Homo sapiens, UniProt P01236)` is reported as 5.28 (NMR, measured: His30; 35 °C, 25 mM NaCl, apparent; independent-site fit, numbering of the source).
For `CYC1 K72A/K79G/C102S, Met80 sulfoxide (Saccharomyces cerevisiae)`, the pKa was 6.5 (UV-vis, measured: Lys73; numbering of the source).
`ksi D40E/F56A/D103N (Pseudomonas putida)` gave a pKa of 9.8 (UV-vis, measured: Tyr57; 25 °C).
The pKa of `nuc G50F/V51N/P117G/H124L/S128A/del44-49/L38D (Staphylococcus aureus)` is reported as 6.5 (NMR, measured: His8; 298 K, KCl 100 mM, numbering of the source).
With `ORF56 (Sulfolobus islandicus, UniProt Q54323)` the pKa was 2.88 (NMR, measured: Asp52; free native homodimer, low salt).
For `proteorhodopsin, retinal (uncultured gamma-proteobacterium EBAC31A08, UniProt Q9F7P4)`, the pKa was 7.1 (UV-vis, measured: Asp97; NaCl 100 mM, large POPC nanodisc, monomeric).
`ksi D40R/D103N (Pseudomonas putida)` has a pKa of 8.2 (UV-vis, measured: Tyr57; 25 °C).
For `nuc G50F/V51N/P117G/H124L/S128A/del44-49/L38K (Staphylococcus aureus)`, the pKa was 5.6 (NMR, measured: His121; 298 K, KCl 100 mM, numbering of the source).
For `PCSK1 propeptide domain (Homo sapiens, UniProt P29120)`, the pKa was 5.61 (mass spectrometry, measured: His72; apparent, histidine H/D exchange, pepsin digest).
For `ahpC (Salmonella typhimurium, UniProt P0A251)`, the pKa was 5.84 (UV-vis, measured: Cys46; ammonium sulfate 100 mM, numbering of the source).
`PBP1 mature (Amyelois transitella)` has a pKa of > 7 (NMR, measured: His69; 25 °C, free protein; not delipidated).
The pKa of `ksi D40L (Pseudomonas putida)` is reported as > 10 (UV-vis, measured: Tyr57; 25 °C).
`CISD1 soluble cytoplasmic domain (Homo sapiens, UniProt Q9NZ45)` has a pKa of 6.8 (UV-vis, measured: His87; NaCl 100 mM, cluster oxidised).
With `UGT1A9 (Homo sapiens, UniProt O60656)` the Km was 2.21 µM (COc1ccccc1-c1cc(=O)c2ccc(O)cc2o1; steady-state kinetics; pH 7.4, 37 °C).
`CRYGD P23T (Homo sapiens)` has a pKa of 6.21 (NMR, measured: His121; 25 °C, numbering of the source).
`nuc G50F/V51N/P117G/H124L/S128A/del44-49/L38D/E122Q (Staphylococcus aureus)` gave a pKa of 5.8 (NMR, measured: His121; 298 K, KCl 100 mM, numbering of the source).

A few entries again:
`nuc G50F/V51N/P117G/H124L/S128A/del44-49/L38D/E122Q (Staphylococcus aureus)` gave a pKa of 5.8 (NMR, measured: His121; 298 K, KCl 100 mM, numbering of the source).
`ksi D40Q/D103N (Pseudomonas putida)` has a pKa of 7.9 (UV-vis, measured: Tyr57; 25 °C).
`PBP1 mature (Amyelois transitella)` has a pKa of > 7 (NMR, measured: His69; 25 °C, free protein; not delipidated).
